Published values from different studies.
Each line is one published result; not all experiments were run side by side.
INSR: Insulin receptor (INSR, Homo sapiens, UniProt P06213)
INSR phosphorylated: Insulin receptor, phosphorylated (INSR, Homo sapiens, UniProt P06213)
INSR activated: Insulin receptor, activated (INSR, Homo sapiens, UniProt P06213)

| Structure (SMILES) | target | assay | conditions | how to read | quantity | result |
| --- | --- | --- | --- | --- | --- | --- |
| CC(C)=CC1OC(C)(C)C2C=C3C(=O)C(Cl)=CC(O)C3C3C(O)C4OC4C(=O)C132 (stereo not shown) | INSR | cell-free assay, competition with immobilised ligand | 10 µM |  | remaining binding | 99% |
| C=CC(=O)N1Cc2nc(-c3cc(-c4cc(Cl)cnc4Cl)c(F)cc3F)n(-c3ccncn3)c2C1 | INSR | cell-free assay | 1 µM |  | inhibition | 6.1% |
| Cc1cccc(-c2ccc3nc(NC(=O)C4CCCCC4)nn3c2)c1 | INSR | enzyme activity, Dundee kinase panel | 10 µM |  | remaining activity | 115% |
| CNC(=O)C1CCN(c2cc(C)c(F)cc2NC(=O)c2ccc(-c3cc(O)ccc3C)c(C)c2)CC1 | INSR | binding, competition with immobilised ligand | 1 µM |  | remaining binding | 83% |
| COc1cc(Nc2nc(C)cc(-c3cnn4nc(OC)ccc34)n2)cc(C(F)(F)F)c1 | INSR | inhibitor | 1 µM | baseline: control | remaining activity | 71% |
| CCn1cc(C(=O)O)c(=O)c2c(N)c(F)c(NC3CCCCC3)cc21 | INSR | kinase activity | 0.1 µM, together with: ATP at Km |  | inhibition | 6.6% |
| Cc1ccc(C)c(-c2ccc3nc(NC(=O)C4CCCCC4)nn3c2)c1 | INSR | enzyme activity, Dundee kinase panel | 10 µM |  | remaining activity | 77% |
| Nc1ncc(-c2cc(-c3cnn(CC(F)(F)F)c3)ncc2F)nc1C(=O)NC1CNCC(F)C1 (stereo not shown) | INSR | enzyme activity | 1 µM | baseline: DMSO control | remaining activity | 93.4% |
| NC(=O)C[C@H]1CCc2sc3ncnc(O[C@H]4CC[C@H](N5CCOCC5)CC4)c3c21 | INSR | enzyme activity, inhibitor | 10 µM |  | inhibition | 15% |
| Cc1cccc(O[C@H]2CCC[C@@H](C(C)CNCc3ccncc3)C2)c1 (relative stereo) | INSR | cell-free assay | 10 µM |  | inhibition | -3% |
| O=C(Cc1ccc(OCc2ccccc2)cc1)NC1(C(=O)O)CCN(C(=O)c2ccc(-c3cccc(Cl)c3)cc2)CC1 | INSR phosphorylated | enzyme activity, inhibitor | 10 µM |  | activity vs control | 102% |
| COc1c(Cl)cccc1Nc1c(-c2ccncc2C#C[C@@]2(C)CCCN2C(=O)/C=C/CN(C)C)[nH]c2c1C(=O)NCC2 | INSR | cell-free assay, competition with immobilised ligand | 3 µM |  | remaining binding | 98% |
| CN1CCN(Cc2ccc(NC(=O)c3cccc(C#Cc4cnc(N)c5ncccc45)c3)cc2C(F)(F)F)CC1 | INSR | cell-free assay, competition with immobilised ligand | 50 nM |  | remaining binding | 77% |
| CNS(=O)(=O)Nc1nccc(Cc2c(C)c3ccc(Oc4ncccc4F)cc3oc2=O)c1F | INSR | cell-free assay, competition with immobilised ligand | 10 µM |  | remaining binding | 97% |
| CNC(=O)C[C@H](Cc1ccc(C#N)cc1)NC(=O)c1cc(-c2ccc(CN[C@H](C)c3ccc(C)cc3)o2)ccc1Cl | INSR | enzyme activity, inhibitor | 1 µM |  | activity vs control | 106% |
| CN1CC[C@@H](COc2cnc(C#N)cc2-c2ccn3nc(NC(=O)C4CC4)cc3c2)C1 | INSR phosphorylated | enzyme activity, inhibitor | 1 µM |  | inhibition | 1% |
| Cc1cnc2nc1Nc1cccc(c1)COC/C=C/COCc1cc(ccc1OCCN1CCOCC1)N2 | INSR | binding | 0.1 µM |  | remaining binding | 58% |
| COC(=O)[C@@]1(C)C=C(C(=O)Nc2cccc(C(=O)Nc3ccc(Nc4nccc(-c5cccnc5)n4)c(C)c3)c2)C(=O)CC1 | INSR | binding, competition with immobilised ligand | 1 µM |  | remaining binding | 77% |
| C=CC(=O)Nc1cccc(-c2cnc3[nH]cc(C(=O)NC(C)(C)C)c3n2)c1 | INSR | enzyme activity, inhibitor | 0.1 µM |  | inhibition | 3% |
| C=C1C[C@]2(C(=O)OC)C=C(C(=O)Nc3cccc(C(=O)Nc4ccc(Nc5nccc(-c6cccnc6)n5)c(C)c4)c3)C(=O)[C@H]1C2 | INSR | binding, competition with immobilised ligand | 1 µM |  | remaining binding | 82% |
| COc1ccc(NC(=O)Nc2ccc3c(c2)C(=O)N(C(C)CO)CC(C)C(CN(C)Cc2ccc4c(c2)OCO4)O3)cc1 (stereo not shown) | INSR activated | kinase activity | 0.03 µM | baseline: control | remaining activity | 96% |
| C[C@H]1CN(C(=O)c2cn(-c3ccnc(N)n3)c3cc(C#CC4(O)CCCCC4)ccc23)CCN1 | INSR | enzyme activity, inhibitor, FRET | 1 µM |  | inhibition | -2% |
| CN1CCN(Cc2ccc(-c3ccc(CO[C@H]4CCC[C@@H]4NC(=O)c4cc(-c5cnn(C)c5)cnc4N)cc3)cc2)CC1 | INSR | enzyme activity, inhibitor | 0.1 µM |  | inhibition | 0% |
| Nc1nc(Nc2ccccc2)sc1C(=O)c1ccccc1 | INSR | enzyme activity, inhibitor | 10 µM |  | remaining activity | 63% |
| O=C=[N][Ru-4]123([n]4c5ccc(O)cc5c5c6c(c7cc(F)c[n+]1c7c54)C(=O)NC6=O)[S+]1CC[S+]2CC[S+]3CC1 (stereo not shown) | INSR activated | enzyme activity | 100 nM, human enzyme, together with: 10 µM ATP | baseline: untreated | remaining activity | 60% |

A few entries again:
| Structure (SMILES) | target | assay | conditions | how to read | quantity | result |
| --- | --- | --- | --- | --- | --- | --- |
| C=C1C[C@]2(C(=O)OC)C=C(C(=O)Nc3cccc(C(=O)Nc4ccc(Nc5nccc(-c6cccnc6)n5)c(C)c4)c3)C(=O)[C@H]1C2 | INSR | binding, competition with immobilised ligand | 1 µM |  | remaining binding | 82% |
| COC(=O)[C@@]1(C)C=C(C(=O)Nc2cccc(C(=O)Nc3ccc(Nc4nccc(-c5cccnc5)n4)c(C)c3)c2)C(=O)CC1 | INSR | binding, competition with immobilised ligand | 1 µM |  | remaining binding | 77% |
| COc1ccc(NC(=O)Nc2ccc3c(c2)C(=O)N(C(C)CO)CC(C)C(CN(C)Cc2ccc4c(c2)OCO4)O3)cc1 (stereo not shown) | INSR activated | kinase activity | 0.03 µM | baseline: control | remaining activity | 96% |
